Published values of several laboratories.
Each numbered part is a random draw from the data of one study; scales do not carry over between parts.
UniProt Q96PY6, sequence (whole entry, looked up): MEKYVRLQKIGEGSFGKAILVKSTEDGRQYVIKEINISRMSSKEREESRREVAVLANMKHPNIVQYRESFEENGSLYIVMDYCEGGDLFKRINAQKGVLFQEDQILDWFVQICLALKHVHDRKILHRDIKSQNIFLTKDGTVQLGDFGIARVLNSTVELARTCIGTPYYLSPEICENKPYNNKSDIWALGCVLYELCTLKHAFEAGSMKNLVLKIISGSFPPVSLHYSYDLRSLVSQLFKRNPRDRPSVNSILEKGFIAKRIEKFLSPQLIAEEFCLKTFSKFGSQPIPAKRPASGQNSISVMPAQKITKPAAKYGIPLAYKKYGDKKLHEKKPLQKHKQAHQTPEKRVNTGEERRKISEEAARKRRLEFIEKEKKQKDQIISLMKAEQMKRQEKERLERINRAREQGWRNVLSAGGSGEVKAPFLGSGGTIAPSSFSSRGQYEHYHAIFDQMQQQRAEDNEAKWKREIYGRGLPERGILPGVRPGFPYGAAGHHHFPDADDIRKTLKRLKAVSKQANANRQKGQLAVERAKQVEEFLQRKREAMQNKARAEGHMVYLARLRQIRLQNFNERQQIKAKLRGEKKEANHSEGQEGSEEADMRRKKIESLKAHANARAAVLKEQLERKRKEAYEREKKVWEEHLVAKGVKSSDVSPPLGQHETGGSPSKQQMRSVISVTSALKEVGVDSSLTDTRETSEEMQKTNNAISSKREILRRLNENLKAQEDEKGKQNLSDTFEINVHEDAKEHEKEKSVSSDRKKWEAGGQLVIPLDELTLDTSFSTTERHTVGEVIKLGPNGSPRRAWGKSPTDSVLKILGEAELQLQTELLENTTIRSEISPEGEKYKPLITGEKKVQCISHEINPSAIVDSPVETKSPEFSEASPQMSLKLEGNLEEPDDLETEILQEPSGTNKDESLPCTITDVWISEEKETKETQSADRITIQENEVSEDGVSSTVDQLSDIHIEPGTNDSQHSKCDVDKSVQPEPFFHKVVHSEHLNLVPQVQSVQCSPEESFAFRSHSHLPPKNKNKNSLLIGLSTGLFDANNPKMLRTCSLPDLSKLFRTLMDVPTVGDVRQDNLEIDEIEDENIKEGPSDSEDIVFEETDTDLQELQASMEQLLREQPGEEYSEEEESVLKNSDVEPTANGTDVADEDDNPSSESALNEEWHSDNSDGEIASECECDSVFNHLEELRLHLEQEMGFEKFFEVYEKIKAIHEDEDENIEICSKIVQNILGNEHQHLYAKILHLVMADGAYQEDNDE
UniProt Q99558, sequence (whole entry, looked up): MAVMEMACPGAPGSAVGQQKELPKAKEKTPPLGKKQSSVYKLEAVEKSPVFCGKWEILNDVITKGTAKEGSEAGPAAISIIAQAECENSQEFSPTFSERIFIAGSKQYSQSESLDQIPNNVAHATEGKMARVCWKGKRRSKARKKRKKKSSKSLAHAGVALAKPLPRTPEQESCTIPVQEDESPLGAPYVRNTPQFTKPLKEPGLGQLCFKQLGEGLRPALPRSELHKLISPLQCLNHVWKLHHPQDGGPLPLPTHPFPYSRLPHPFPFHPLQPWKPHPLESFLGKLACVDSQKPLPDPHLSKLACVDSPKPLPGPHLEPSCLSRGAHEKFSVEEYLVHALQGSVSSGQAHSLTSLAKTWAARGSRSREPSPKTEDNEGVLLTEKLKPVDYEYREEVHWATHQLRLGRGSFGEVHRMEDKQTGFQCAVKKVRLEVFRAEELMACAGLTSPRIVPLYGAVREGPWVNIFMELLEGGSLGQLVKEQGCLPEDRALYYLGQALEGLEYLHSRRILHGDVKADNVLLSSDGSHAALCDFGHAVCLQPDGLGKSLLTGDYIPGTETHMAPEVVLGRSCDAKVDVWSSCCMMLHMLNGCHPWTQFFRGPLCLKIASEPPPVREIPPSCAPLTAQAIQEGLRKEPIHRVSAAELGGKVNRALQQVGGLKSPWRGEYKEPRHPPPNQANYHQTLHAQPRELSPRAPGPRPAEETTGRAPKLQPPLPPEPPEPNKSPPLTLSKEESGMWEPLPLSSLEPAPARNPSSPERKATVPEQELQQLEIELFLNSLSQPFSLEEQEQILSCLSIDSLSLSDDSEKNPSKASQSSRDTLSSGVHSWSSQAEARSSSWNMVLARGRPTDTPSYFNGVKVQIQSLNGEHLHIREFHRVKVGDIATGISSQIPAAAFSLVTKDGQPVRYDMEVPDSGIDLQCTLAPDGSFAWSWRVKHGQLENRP
UniProt Q9UL54, sequence (whole entry, looked up): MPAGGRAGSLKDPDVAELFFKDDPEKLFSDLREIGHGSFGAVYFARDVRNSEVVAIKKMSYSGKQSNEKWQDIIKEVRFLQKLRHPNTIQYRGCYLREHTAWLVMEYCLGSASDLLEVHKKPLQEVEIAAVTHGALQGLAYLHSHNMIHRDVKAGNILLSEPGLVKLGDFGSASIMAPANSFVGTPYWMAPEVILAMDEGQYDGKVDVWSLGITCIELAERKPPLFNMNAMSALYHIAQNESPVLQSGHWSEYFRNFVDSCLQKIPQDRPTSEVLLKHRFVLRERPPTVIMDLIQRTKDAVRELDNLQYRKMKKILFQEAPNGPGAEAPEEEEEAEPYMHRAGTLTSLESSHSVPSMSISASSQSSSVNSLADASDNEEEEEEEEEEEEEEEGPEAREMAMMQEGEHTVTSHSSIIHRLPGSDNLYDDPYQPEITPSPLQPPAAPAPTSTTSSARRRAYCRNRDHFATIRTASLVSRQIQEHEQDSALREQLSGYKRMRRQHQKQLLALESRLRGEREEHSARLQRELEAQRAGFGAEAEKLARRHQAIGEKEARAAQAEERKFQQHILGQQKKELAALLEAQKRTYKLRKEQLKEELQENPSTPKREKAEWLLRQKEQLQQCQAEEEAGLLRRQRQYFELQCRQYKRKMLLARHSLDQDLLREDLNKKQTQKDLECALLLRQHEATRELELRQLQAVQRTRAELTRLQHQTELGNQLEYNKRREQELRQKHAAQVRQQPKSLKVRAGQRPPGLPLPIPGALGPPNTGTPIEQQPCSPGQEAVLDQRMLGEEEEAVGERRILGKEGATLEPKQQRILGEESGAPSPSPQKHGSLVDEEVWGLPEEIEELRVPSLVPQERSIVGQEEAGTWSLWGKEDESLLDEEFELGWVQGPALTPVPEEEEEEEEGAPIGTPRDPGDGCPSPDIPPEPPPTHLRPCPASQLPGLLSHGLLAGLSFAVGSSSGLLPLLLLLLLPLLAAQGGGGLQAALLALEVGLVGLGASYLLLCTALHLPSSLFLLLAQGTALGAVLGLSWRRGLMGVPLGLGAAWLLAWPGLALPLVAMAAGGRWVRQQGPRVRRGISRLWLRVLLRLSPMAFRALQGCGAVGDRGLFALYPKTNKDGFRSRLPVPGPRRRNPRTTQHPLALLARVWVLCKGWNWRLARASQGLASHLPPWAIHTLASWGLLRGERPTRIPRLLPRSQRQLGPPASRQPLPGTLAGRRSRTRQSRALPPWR
UniProt Q9HC98, sequence (whole entry, looked up): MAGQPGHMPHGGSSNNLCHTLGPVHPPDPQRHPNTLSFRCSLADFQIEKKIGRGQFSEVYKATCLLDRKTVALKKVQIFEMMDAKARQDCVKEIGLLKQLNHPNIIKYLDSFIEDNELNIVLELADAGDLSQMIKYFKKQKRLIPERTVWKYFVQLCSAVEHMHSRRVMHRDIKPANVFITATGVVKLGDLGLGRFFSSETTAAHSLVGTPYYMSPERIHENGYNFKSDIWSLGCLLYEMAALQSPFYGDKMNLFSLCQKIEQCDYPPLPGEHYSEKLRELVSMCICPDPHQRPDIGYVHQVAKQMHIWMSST
UniProt Q9BWU1, sequence (whole entry, looked up): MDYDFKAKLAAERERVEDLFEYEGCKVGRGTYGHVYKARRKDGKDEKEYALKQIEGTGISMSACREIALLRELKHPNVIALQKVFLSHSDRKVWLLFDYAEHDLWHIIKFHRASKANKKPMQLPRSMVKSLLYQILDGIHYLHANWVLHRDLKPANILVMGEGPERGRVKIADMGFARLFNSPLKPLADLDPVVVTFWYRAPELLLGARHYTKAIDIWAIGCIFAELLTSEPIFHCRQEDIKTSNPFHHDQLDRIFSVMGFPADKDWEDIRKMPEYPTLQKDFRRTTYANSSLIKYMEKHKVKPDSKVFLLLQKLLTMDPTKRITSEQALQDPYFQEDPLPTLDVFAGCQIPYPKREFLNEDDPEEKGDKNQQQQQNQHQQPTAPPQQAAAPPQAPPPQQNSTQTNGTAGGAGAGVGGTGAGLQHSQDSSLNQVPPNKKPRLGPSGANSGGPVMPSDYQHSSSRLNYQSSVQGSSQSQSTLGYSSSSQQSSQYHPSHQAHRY
UniProt Q9Y6M4, sequence (whole entry, looked up): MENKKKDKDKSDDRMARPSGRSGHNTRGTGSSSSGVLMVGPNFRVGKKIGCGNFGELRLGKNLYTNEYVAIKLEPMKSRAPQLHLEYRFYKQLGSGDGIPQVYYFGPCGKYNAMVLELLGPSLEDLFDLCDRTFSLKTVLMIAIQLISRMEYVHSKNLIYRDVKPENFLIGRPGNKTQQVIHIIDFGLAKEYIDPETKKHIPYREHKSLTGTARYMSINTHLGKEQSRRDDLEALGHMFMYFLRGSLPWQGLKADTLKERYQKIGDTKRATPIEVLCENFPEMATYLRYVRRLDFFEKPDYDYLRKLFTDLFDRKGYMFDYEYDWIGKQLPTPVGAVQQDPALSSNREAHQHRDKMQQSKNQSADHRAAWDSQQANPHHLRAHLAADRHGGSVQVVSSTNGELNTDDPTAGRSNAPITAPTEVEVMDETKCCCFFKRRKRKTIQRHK

Block 1
SMILES: CNC(=O)Nc1ccc2c(c1)[C@@]1(CC2)OC(=O)N(CC(=O)N(Cc2ccc(F)cc2)[C@@H](C)C(F)(F)F)C1=O
Tested at: 1 µM
Endpoint: remaining binding
Ribosomal protein S6 kinase alpha-2, N-terminal kinase domain (RPS6KA2, Homo sapiens, UniProt Q15349); cell-free assay, competition with immobilised ligand: 87%
MAP4K2 (Homo sapiens, UniProt Q12851); cell-free assay, competition with immobilised ligand: 92%
CDK19 (Homo sapiens, UniProt Q9BWU1); competition binding: 100%
HCK (Homo sapiens, UniProt P08631); cell-free assay, competition with immobilised ligand: 100%
EGFR (Homo sapiens, UniProt P00533, del747-750/T751S); cell-free assay, competition with immobilised ligand: 100%
MAP3K6 (Homo sapiens, UniProt O95382); cell-free assay, competition with immobilised ligand: 82%
PIK3CA (Homo sapiens, UniProt P42336, E542K); cell-free assay, competition with immobilised ligand: 69%
EGFR (Homo sapiens, UniProt P00533, del746-750); cell-free assay, competition with immobilised ligand: 85%
CDK13 (Homo sapiens, UniProt Q14004); cell-free assay, competition with immobilised ligand: 92%
STK16 (Homo sapiens, UniProt O75716); cell-free assay, competition with immobilised ligand: 99%
TAOK3 (Homo sapiens, UniProt Q9H2K8); cell-free assay, competition with immobilised ligand: 82%

Block 2
Target: Myc proto-oncogene protein, bHLH-zipper, MAX partner unstated (MYC, Homo sapiens, UniProt P01106, residues 368-449)
UniProt P01106, sequence (368-449, looked up): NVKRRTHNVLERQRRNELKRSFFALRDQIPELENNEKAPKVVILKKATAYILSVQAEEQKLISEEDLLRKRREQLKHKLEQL
Method: protein-binding microarray
Form: double-stranded DNA, one strand shown
Medium: in vitro
Tested at: not given
Notes: k-mer, scored over probes, only values ≥0.25
Reading: higher = stronger binding
Endpoint: E-score
ACGTGGCA: 0.448
ATGCGGTC: 0.318
AACACACG: 0.344
ATCCACAT: 0.357
AAGCGCAT: 0.255
GGAACGCA: 0.293
CGAGGTAG: 0.254
CGCGTGAG: 0.357

Block 3
Target: Histone acetyltransferase KAT6A, winged helix 2, GST fusion (KAT6A, Homo sapiens, UniProt Q92794, residues 85-181)
Method: protein binding microarray
Form: double-stranded DNA, one strand shown
Medium: in vitro
Tested at: not given
Notes: 8-mer, flanks averaged, mean of 2 arrays, mostly near background
Reference: not given
Reading: higher = stronger binding
Endpoint: E-score
Construct (chain): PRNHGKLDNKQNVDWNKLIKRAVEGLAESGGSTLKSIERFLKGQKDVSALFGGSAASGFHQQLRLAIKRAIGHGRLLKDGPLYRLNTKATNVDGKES
CCCATGGG: 0.0869
CGTCATTA: -0.17
GTTCACGA: 0.0227
AAAAGTTG: -0.158
AGGTGCGA: 0.0883
AAAGAAAG: -0.0755
ACGACTGA: -0.0134
ATAGTGTC: -0.015

Block 4
SMILES: COc1cc2ncnc(N3CCN(C(=O)Nc4ccc(Oc5ccccc5)cc4)CC3)c2cc1OC
Effect on: enzyme activity
Mode: inhibitor
Tested at: 0.5 µM
Reference: control
Endpoint: remaining activity
TBK1 (Homo sapiens, UniProt Q9UHD2): 96.3%
NEK1 (Homo sapiens, UniProt Q96PY6): 92.6%
WEE1 (Homo sapiens, UniProt P30291): 97.5%
ARAF (Homo sapiens, UniProt P10398): 105%
NEK6 (Homo sapiens, UniProt Q9HC98): 103%
CSNK1G2 (Homo sapiens, UniProt P78368): 94.6%
MAP3K14 (Homo sapiens, UniProt Q99558): 105%
ACVR1B (Homo sapiens, UniProt P36896): 94.7%
FGFR1 (Homo sapiens, UniProt P11362): 89.6%
MERTK (Homo sapiens, UniProt Q12866): 60%
MAP3K5 (Homo sapiens, UniProt Q99683): 102%
CSNK1G3 (Homo sapiens, UniProt Q9Y6M4): 82.7%
TAOK2 (Homo sapiens, UniProt Q9UL54): 96.3%
MAPKAPK2 (Homo sapiens, UniProt P49137): 102%

Repeated from above (block 3):
AAAAGTTG: -0.158
AGGTGCGA: 0.0883
AAAGAAAG: -0.0755
ACGACTGA: -0.0134
ATAGTGTC: -0.015
